# Experimental data of several laboratories.
# Numbered parts are unrelated; each lists some results of a single study.

# Block 1
# Target: Transcriptional repressor CTCF (CTCF, Homo sapiens, UniProt P49711, residues 1-727, full length assumed)
# Method: protein-binding microarray
# Form: double-stranded DNA, one strand shown
# Sample: in vitro
# Concentration: not given
# Notes: k-mer, scored over probes, only values ≥0.25
# Direction: higher = stronger binding
# Construct (chain): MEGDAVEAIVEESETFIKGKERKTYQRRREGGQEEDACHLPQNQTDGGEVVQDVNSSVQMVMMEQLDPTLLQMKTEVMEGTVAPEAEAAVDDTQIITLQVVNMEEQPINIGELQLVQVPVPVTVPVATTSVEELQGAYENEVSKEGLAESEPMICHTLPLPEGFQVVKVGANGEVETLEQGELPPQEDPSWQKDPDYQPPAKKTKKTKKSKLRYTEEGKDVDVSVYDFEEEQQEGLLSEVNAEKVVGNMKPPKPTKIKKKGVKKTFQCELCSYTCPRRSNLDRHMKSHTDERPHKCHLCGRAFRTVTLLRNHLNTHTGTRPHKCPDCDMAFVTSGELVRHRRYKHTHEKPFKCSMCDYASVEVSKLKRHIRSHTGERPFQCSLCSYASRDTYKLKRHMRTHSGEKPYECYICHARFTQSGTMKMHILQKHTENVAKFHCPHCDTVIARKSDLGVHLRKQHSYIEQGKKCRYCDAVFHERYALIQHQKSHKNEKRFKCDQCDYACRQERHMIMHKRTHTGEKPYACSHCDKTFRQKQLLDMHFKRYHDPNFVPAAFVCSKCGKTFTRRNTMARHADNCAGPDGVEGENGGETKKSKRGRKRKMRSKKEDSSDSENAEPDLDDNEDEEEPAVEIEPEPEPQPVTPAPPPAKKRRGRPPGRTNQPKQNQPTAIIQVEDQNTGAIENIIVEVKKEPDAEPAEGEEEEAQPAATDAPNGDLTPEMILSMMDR
Strand,E-score
ATAATGTA,0.361
GGAAAAAA,0.26
AATTAATG,0.262
ACAGAATA,0.258
AATTTTCC,0.259

# Block 2
# Target: Centromere-binding protein 1, full length, N-terminal tag (CBF1, Saccharomyces cerevisiae, UniProt P17106, residues 1-351)
# UniProt P17106, sequence (whole entry, looked up): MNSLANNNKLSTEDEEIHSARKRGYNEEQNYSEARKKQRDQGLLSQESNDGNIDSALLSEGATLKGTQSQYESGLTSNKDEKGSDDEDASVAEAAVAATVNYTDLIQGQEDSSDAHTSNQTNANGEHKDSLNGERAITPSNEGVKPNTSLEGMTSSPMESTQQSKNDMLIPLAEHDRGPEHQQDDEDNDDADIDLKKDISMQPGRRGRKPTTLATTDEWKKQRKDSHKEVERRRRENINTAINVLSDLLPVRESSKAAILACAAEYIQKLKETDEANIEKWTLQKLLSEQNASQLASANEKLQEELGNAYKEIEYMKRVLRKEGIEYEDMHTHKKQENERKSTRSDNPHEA
# Method: protein-binding microarray
# Form: double-stranded DNA, one strand shown
# Sample: in vitro
# Concentration: 0.8 µM
# Notes: whole 60-bp probe, no competitor
# Direction: higher = stronger binding
Strand,fluorescence intensity
GAATTTGCCGTTGGCCTGATGATCTGACCATTCTAGGTCTTGATTCGCTTGACGCTGCTG,519 a.u.
CTAAGATATAACACTCTGATGCAGATTTATGAATTCGTCTTGATTCGCTTGACGCTGCTG,522 a.u.
CTAGTTTGTCAAAAGCACGAGCGCGATGAGAATTTCGTCTTGATTCGCTTGACGCTGCTG,644 a.u.
CTATTGGTCACGTGACACGCGATCAACTACATTTTCGTCTTGATTCGCTTGACGCTGCTG,45900 a.u.

# Block 3
# Target: PABPC1L2, full length, GST fusion (mouse, UniProt A0ABA7IW68)
# Method: RNAcompete
# Form: RNA
# Sample: in vitro
# Concentration: 20 nM
# Notes: 7-mer, probes averaged, single round
# Relative to: mean of 7-mers
# Direction: higher = stronger binding
# Target sequence (chain): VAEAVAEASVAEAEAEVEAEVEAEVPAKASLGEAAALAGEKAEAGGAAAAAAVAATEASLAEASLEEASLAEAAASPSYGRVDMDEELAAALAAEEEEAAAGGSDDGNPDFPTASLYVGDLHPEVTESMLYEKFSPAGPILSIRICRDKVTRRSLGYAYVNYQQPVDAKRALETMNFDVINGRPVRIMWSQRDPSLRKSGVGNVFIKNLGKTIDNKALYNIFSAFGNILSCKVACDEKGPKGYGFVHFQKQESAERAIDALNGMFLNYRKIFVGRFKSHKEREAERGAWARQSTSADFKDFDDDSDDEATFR
Strand,7-mer Z-score
UCUUUUG,-0.103
CCCGUCU,-0.472
AUGUUGA,-0.0899
GUGGGAC,0.262

# Mixed results
Substance,target,assay,system,conditions,how to read,quantity,result
"PhoQ, residues 284 288 289 292 302 303 SIHLQL","PhoP, residues 12 14 15 18 19 QWHVF (Escherichia coli, UniProt P23836)","Sort-seq, item: YFP reporter",E. coli,"PhoQ-PhoP variant library, together with: 10 µM Mg2+","relative to: high Mg2+ state, higher = stronger signaling",fold induction,8.81

# Repeated from above (mixed results):
Substance,target,assay,system,conditions,how to read,quantity,result
"PhoQ, residues 284 288 289 292 302 303 SIHLQL","PhoP, residues 12 14 15 18 19 QWHVF (Escherichia coli, UniProt P23836)","Sort-seq, item: YFP reporter",E. coli,"PhoQ-PhoP variant library, together with: 10 µM Mg2+","relative to: high Mg2+ state, higher = stronger signaling",fold induction,8.81
